Experimental data pooled from the literature.
Parts stem from different laboratories: compare values within a part only.

Block 1
Target: Sal-like protein 4, full length isoform B (SALL4, Homo sapiens, UniProt Q9UJQ4-2, residues 1-616)
Method: universal PBM
Molecule type: double-stranded DNA, one strand shown
Sample: in vitro
Concentration: not given
Setting: 8-mer, flanks averaged, mean of replicates
Direction: higher = stronger binding
`CTGGGTAC` gave an E-score of -0.279.
`ATTATTAA` has an E-score of 0.454.
With `GGGCCTGA` the E-score was -0.253.
For `CAGGTTGC`, the E-score was -0.0402.
For `GCAGGCGA`, the E-score was -0.217.
For `GACCGCTC`, the E-score was -0.12.

Block 2
Target: PABPC1L2, full length, GST fusion (mouse, UniProt A0ABA7IW68)
Method: RNAcompete
Molecule type: RNA
Sample: in vitro
Concentration: 20 nM
Setting: 7-mer, probes averaged, single round
Relative to: mean of 7-mers
Direction: higher = stronger binding
Construct (chain): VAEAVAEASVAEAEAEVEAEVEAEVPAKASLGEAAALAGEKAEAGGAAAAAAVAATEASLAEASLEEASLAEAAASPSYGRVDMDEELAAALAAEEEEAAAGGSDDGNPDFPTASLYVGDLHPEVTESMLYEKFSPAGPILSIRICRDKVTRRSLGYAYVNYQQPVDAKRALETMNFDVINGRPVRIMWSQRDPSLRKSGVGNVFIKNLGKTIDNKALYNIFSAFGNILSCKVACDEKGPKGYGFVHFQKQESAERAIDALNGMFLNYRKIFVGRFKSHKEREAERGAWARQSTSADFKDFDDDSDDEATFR
The 7-mer Z-score of `GCAGCGG` is reported as -0.0391.
`GGUGAAC` gave a 7-mer Z-score of -0.0138.
`GCUCAUA` gave a 7-mer Z-score of -0.0319.
`UAGUCCU` has a 7-mer Z-score of -0.382.
For `GCUCAAC`, the 7-mer Z-score was -0.206.
With `GCGCUCC` the 7-mer Z-score was -0.273.

Block 3
Target: Interferon regulatory factor 7, full length, phosphomimetic (IRF7, Homo sapiens, UniProt Q92985, residues 1-503, S471D/S472D/S475D/S476D/S477D/S483D/S484D/S487D)
Method: protein-binding microarray
Molecule type: double-stranded DNA, one strand shown
Sample: in vitro
Concentration: 2200 nM top
Setting: 60-bp whole probe
Added: salmon DNA 0.4 mg/ml
Relative to: random background probes
Direction: higher = stronger binding
Constant ends, left off below: GCCTAGCAC … GTCTTGATTCGCTTGACGCTGCTG
Target sequence (chain): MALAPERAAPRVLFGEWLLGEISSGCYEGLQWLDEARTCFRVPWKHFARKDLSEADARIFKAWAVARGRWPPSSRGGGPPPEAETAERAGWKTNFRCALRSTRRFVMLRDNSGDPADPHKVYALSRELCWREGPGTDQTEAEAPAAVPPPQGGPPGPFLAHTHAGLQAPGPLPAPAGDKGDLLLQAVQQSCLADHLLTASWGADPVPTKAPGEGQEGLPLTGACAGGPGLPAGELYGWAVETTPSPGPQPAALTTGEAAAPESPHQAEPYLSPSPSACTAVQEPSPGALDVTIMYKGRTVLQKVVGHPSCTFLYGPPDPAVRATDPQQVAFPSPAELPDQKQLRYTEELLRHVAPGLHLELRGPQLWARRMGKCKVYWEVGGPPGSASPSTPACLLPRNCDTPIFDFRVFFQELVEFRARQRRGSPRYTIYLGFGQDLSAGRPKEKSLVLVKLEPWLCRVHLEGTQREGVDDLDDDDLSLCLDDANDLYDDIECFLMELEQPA
`GACGGTTTACTTTCCCTGACGTGCTAG`: “fitted relative affinity” 2.56 z-score.
For `TTAGGTCTCCTTCCCCTTTAGTGCTAG`, “fitted relative affinity” read 1.85 z-score.
For `TTAGGTTTCGCTTCCGGTTAGTGCTAG`, “fitted relative affinity” read 8.96 z-score.
`GACGATTTCGGGTAACGAGACGTGCTA`: “fitted relative affinity” 2.01 z-score.
`TTAGATTTCGGGACTGGCTTAGTGCTA`: “fitted relative affinity” 0.937 z-score.

Further values, each from its own experiment
`PhoQ, residues 284 288 289 292 302 303 SIHMAM` has a fold induction of 12.2 (PhoP, residues 12 14 15 18 19 VQGLL (Escherichia coli, UniProt P23836); Sort-seq, refers to: YFP reporter; E. coli; PhoQ-PhoP variant library, added: 10 µM Mg2+; relative to: high Mg2+ state, higher = stronger signaling).

Some of these lines once more (block 1):
For `GACCGCTC`, the E-score was -0.12.
